Published values from different studies.
Parts stem from different laboratories: compare values within a part only.

Study 1
Target: Prothrombin, mature alpha-thrombin (F2, Homo sapiens, UniProt P00734)
Method: aptamer microarray, sandwich
Molecule type: DNA with 2'F-ANA
Matrix: in vitro
Tested at: 200 nM
Notes: whole 15-mer aptamer, many near background
Together with: Cy3 exosite-II aptamer, 400 nM
Direction: higher = stronger binding
Oligonucleotide	mean fluorescence intensity
GGTTGGTGTGGTTGG (2'F-ANA at 3 4 5 6 8 9 10 11 15)	52.1 a.u.
GGTTGGTGTGGTTGG (2'F-ANA at 1 2 3 5 6 7 15)	61.4 a.u.
GGTTGGTGTGGTTGG (2'F-ANA at 2 3 4 5 6 7 11 12 13 14)	50.9 a.u.

Study 2
Target: Histone acetyltransferase KAT6A, winged helix 1, GST fusion (KAT6A, Homo sapiens, UniProt Q92794, residues 1-85)
Method: protein binding microarray
Molecule type: double-stranded DNA, one strand shown
Matrix: in vitro
Tested at: not given
Notes: 8-mer, flanks averaged, mean of 2 arrays, mostly near background
Reference: not given
Direction: higher = stronger binding
Target sequence (chain): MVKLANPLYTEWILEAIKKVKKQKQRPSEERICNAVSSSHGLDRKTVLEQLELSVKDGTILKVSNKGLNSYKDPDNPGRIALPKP
Oligonucleotide	E-score
ACCAATTG	-0.164
GAAACTTA	-0.111
AGCCTGTC	0.0184
ATAACCTG	-0.251

Further values, each from its own experiment
Molecule	target	test	test system	setting	scale	quantity	value
GCTTCACA	Sal-like protein 4, full length isoform A (SALL4, Homo sapiens, UniProt Q9UJQ4, residues 1-1053)	universal PBM	double-stranded DNA, one strand shown, in vitro	600 nM, 8-mer, flanks averaged, mean of replicates	higher = stronger binding	E-score	-0.0227
PhoQ, residues 284 288 289 292 302 303 GASLAW	PhoP, residues 12 14 15 18 19 LHHVQ (Escherichia coli, UniProt P23836)	Sort-seq, refers to: YFP reporter	E. coli	PhoQ-PhoP variant library, together with: 10 µM Mg2+	reference: high Mg2+ state, higher = stronger signaling	fold induction	9.43
AGGCAACT	Sal-like protein 4, full length isoform B (SALL4, Homo sapiens, UniProt Q9UJQ4-2, residues 1-616)	universal PBM	double-stranded DNA, one strand shown, in vitro	not given, 8-mer, flanks averaged, mean of replicates	higher = stronger binding	E-score	0.057

Some of these lines once more (further values, each from its own experiment):
Molecule	target	test	test system	setting	scale	quantity	value
AGGCAACT	Sal-like protein 4, full length isoform B (SALL4, Homo sapiens, UniProt Q9UJQ4-2, residues 1-616)	universal PBM	double-stranded DNA, one strand shown, in vitro	not given, 8-mer, flanks averaged, mean of replicates	higher = stronger binding	E-score	0.057
